Assay results from different studies.
Each line is one published result; not all experiments were run side by side.

Under “log2 fold change”, Cc1ncsc1-c1ccc(C(C)NC(=O)C2CC(O)CN2C(=O)C(NC(=O)CCCCCCCCCCN2CCCC(Nc3ncc(Cl)c(Nc4ccccc4S(=O)(=O)C(C)C)n3)C2)C(C)(C)C)cc1 (stereo not drawn) is recorded as -2.2 (22Rv1; RNA-seq, measured: MYCL mRNA; concentration not given; baseline: DMSO).
The GI50 of COc1ncccc1CN(C(=O)OC(c1ccc([N+](=O)[O-])cc1)C(F)(F)F)[C@H]1C[C@@H]1c1ccccc1 (mixture of isomers) is reported as > 50 µM (THP-1 wild type cells; MTS; 72 h).
With O=C(NCCOc1ccc(F)cc1)c1ccc([C@H]2[C@@H](F)[C@@H](F)C[C@@H](F)[C@H]2F)cc1 the hepatic clearance was 34 mL/min/kg (hepatocyte stability; cryopreserved rat hepatocytes; 1 µM).
For COc1ncccc1CN(C(=O)OCc1ccc([N+](=O)[O-])cc1F)[C@H]1C[C@@H]1c1ccccc1 (racemic), the GI50 was > 50 µM (THP-1 wild type cells; MTS; 72 h).
COc1ccccc1-c1c[nH]c2ncc(-c3cncc(C(=O)N(C)C)c3)cc12 has a GI50 of > 1 µM (BaF3; cell growth or viability).
COc1ncccc1CN(C(=O)OCc1ccc([N+](=O)[O-])s1)[C@H]1C[C@@H]1c1ccccc1 (racemic) gave a GI50 of > 50 µM (THP-1 wild type cells; MTS; 72 h).
The GI50 of COc1cccc(C(=O)Nc2ccc(Sc3ccc4c(/C=C/c5ccccn5)n[nH]c4c3)cc2)c1 is reported as 3.73 µM (BaF3; cell growth or viability, CCK-8).
For [Cl-].[Cl-].[Ru+2].c1ccc(-c2ccccn2)nc1.c1ccc(-c2ccccn2)nc1.c1ccc2cc3nc4c5cccnc5c5ncccc5c4nc3cc2c1, the GI50 was 0.201 µM (SK-MEL-28; cell growth, SRB; cool white visible light, 1% O2 hypoxia).
With Cc1cccc(NC(=O)CC(=O)Nc2ccc3[nH]nc(/C=C/c4ccccn4)c3c2)c1 the GI50 was > 10 µM (BaF3; cell growth or viability, CCK-8).
With Nc1ncc(-c2cc(-c3cnn(CC(F)(F)F)c3)ncc2F)nc1C(=O)NC1CNCC(F)C1 (stereo not drawn) the remaining binding was 100% (FYN; KINOMEscan; 1 µM; baseline: DMSO control).
For O=C(CC(=O)Nc1ccc2c(/C=C/c3ccccn3)n[nH]c2c1)Nc1ccc(Cl)c(C(F)(F)F)c1, the GI50 was 7.4 µM (BaF3; cell growth or viability, CCK-8).
CCN(C(=O)c1cc(F)ccc1Oc1nncnc1N1CCC2(C1)CN([C@H](CCCN(C)CCOC)C(C)C)C2)C(C)C has a GI50 of > 10 µM (EJ-28; cell growth or viability; 7 days).
Cc1nn(-c2cccc(N)c2)c(=O)c2cnc(Nc3ccc(N4CCNCC4)cc3)nc12 gave an IC50 of > 10 µM (ABL1 (Homo sapiens, UniProt P00519, T315I); enzyme activity, inhibitor).
The GI50 of COc1ccc(O)cc1-c1c[nH]c2ncc(-c3cncc(C(=O)N(C)C)c3)cc12 is reported as > 1 µM (BaF3; cell growth or viability).
COC1CN([C@H]2CC[C@H]([C@@]3(C)Oc4c(Cl)cc(C(=O)NCc5c(SC)cc(C)[nH]c5=O)c(C)c4O3)CC2)C1 — result for “log2 fold change”: 1.31 (RNA-seq, measured: SEPTIN8; human, whole blood; dose not given, 24 h; baseline: pretreatment baseline).

For quick reference, copied from above:
The GI50 of COc1cccc(C(=O)Nc2ccc(Sc3ccc4c(/C=C/c5ccccn5)n[nH]c4c3)cc2)c1 is reported as 3.73 µM (BaF3; cell growth or viability, CCK-8).
